Measurements collected from several papers.
Parts stem from different laboratories: compare values within a part only.

Set 1
Target: Replicase polyprotein 1ab, nsp13 helicase (rep, Severe acute respiratory syndrome coronavirus 2, UniProt P0DTD1)
Mode: inhibitor
Tested at: 20 µM
Measurement: inhibition
SMILES = COc1cc(F)c(F)c(Nc2ccc(I)cc2F)c1NS(=O)(=O)C1(C[C@H](O)CO)CC1; result = -2.01%
SMILES = O=C1CN(/N=C/c2ccc([N+](=O)[O-])o2)C(=O)N1; result = 4.82%
SMILES = O=C(O)c1ccccc1O; result = 6.31%
SMILES = CS(=O)(=O)c1ccc(-c2cn3ccccc3n2)cc1; result = 2.63%
SMILES = O=C(N[C@H]1CN2CCC1CC2)c1ccc2c(c1)OCCO2; result = 3.04%
SMILES = C[C@@H](C(=O)O)c1ccc(-c2ccccc2)c(F)c1; result = -0.66%
SMILES = NC(=O)NS(=O)(=O)c1ccc(N)cc1; result = 4.13%
SMILES = COc1cccc(-c2ccc([C@@H](Oc3cc(-c4ccc(C[C@H](N)C(=O)O)cc4)nc(N)n3)C(F)(F)F)cc2)c1; result = 4.53%
SMILES = CS(=O)(=O)OC[C@H](O)[C@@H](O)COS(C)(=O)=O; result = 6.53%
SMILES = FC(F)(F)Oc1ccc2nc(-c3ccc(OCCOCCOc4ccc(-c5nc6ccc(OC(F)(F)F)cc6[nH]5)nc4)cn3)[nH]c2c1; result = -1.54%
SMILES = O=C(O)c1ccc(O)c2ncccc12; result = -0.8%
SMILES = Cc1ncc(Cl)cc1NCc1ccc(C(=O)N[C@@H](CC2CCCC2)C(=O)NC2CC2)s1; result = -1.99%
SMILES = Cc1ccc(/C=N/NC(=O)c2ccccc2Oc2ccccc2)o1; result = 1.76%
SMILES = CC(C)OC(=O)N1CCC(Oc2ncnc3c2cnn3-c2ccc(S(C)(=O)=O)cc2F)CC1; result = 2.7%
SMILES = CC(C)NC(=O)COc1cccc(-c2nc(Nc3ccc4[nH]ncc4c3)c3ccccc3n2)c1; result = 6.46%
SMILES = CC(C)=CCC[C@](C)(O[C@@H]1O[C@H](CO)[C@@H](O)[C@H](O)[C@H]1O)[C@H]1CC[C@]2(C)[C@@H]1[C@H](O)C[C@@H]1[C@@]3(C)CC[C@H](O)C(C)(C)[C@@H]3CC[C@]12C; result = 4.6%
SMILES = c1ccc(Cn2c(N3CCNCC3)nc3ccccc32)cc1; result = -2.29%
SMILES = CCNC(=O)c1noc(-c2cc(C(C)C)c(O)cc2O)c1-c1ccc(CN2CCOCC2)cc1; result = 10.4%
SMILES = CCn1c(=O)[nH]c2ccccc21; result = 3.23%
SMILES = C[C@@H]1CN(Cc2ccc(F)cc2)[C@@H](C)CN1C(=O)c1cc2c(C(=O)C(=O)N(C)C)cn(C)c2cc1Cl; result = 1.89%
SMILES = CC(=O)/N=c1/sc(S(N)(=O)=O)nn1C; result = -2.86%
SMILES = COc1cc2c(cc1OC(C)C)[C@H](c1ccc(Cl)cc1)N(c1ccc(N(C)C[C@H]3CC[C@H](N4CCN(C)C(=O)C4)CC3)cc1)C(=O)C2; result = 10.4%

Set 2
Target: Replicase polyprotein 1ab, main protease (rep, Severe acute respiratory syndrome coronavirus 2, UniProt P0DTD1)
Read-out: enzyme activity
Mode: inhibitor
Tested at: 20 µM
Notes: primary screen
Measurement: inhibition
Compound = O=C(O)c1ccccc1-c1c2cc(I)c(=O)c(I)c-2oc2c(I)c(O)c(I)cc12; result = 50.5%
Compound = Cc1ccc(S(=O)(=O)N[C@@H](Cc2ccccc2)C(=O)CCl)cc1; result = 99.7%
Compound = CC(=O)N[C@H](Cc1ccc2ccccc2c1)C(=O)N[C@H](Cc1ccc(Cl)cc1)C(=O)N[C@H](Cc1cccnc1)C(=O)N[C@@H](CO)C(=O)N[C@@H](Cc1ccc(NC(=O)[C@@H]2CC(=O)NC(=O)N2)cc1)C(=O)N[C@H](Cc1ccc(NC(N)=O)cc1)C(=O)N[C@@H](CC(C)C)C(=O)N[C@@H](CCCCNC(C)C)C(=O)N1CCC[C@H]1C(=O)N[C@H](C)C(N)=O; result = 34.6%

Other studies, line by line
Spike glycoprotein: Spike glycoprotein (Severe acute respiratory syndrome coronavirus 2, UniProt P0DTC2)
rep main protease: Replicase polyprotein 1ab, main protease (rep, Severe acute respiratory syndrome coronavirus 2, UniProt P0DTD1)
Substance = Env SOSIP.v4.1 gp120/gp41 (HIV-1); target or system = itself; assay = native gel and SEC; measurement = subunits per oligomer; result = 3
Substance = CC(C)(C)NCC(O)COc1cccc2c1CCC(=O)N2 (centres unmarked); target or system = Spike glycoprotein; assay = nanoDSF; system = spike RBD in PBS; setting = 5 µM, pH 7.4, RBD 100 µM; measurement = ΔTm; result = 0 °C
Substance = Cn1cnc(Cn2c(=O)[nH]/c(=N\c3cc4cn(C)nc4cc3Cl)n(Cc3cc(F)c(F)cc3F)c2=O)n1; system = human, normal renal function; setting = oral, 375 mg; measurement = any TEAE, Moderate severity; result = 0%
Substance = NC(=O)c1ccc(/C=C/C(=O)N2C[C@H]3CCC[C@@H](C2)N3C(=O)CCn2c(O)ccc2O)cc1; target or system = rep main protease; assay = enzyme activity, inhibitor; setting = 5 µM, run 2; measurement = inhibition; result = 12.5%
Substance = HTTDPSFLGRYMSAL; target or system = human CD4 T cells; assay = AIM; system = peptide; measurement = responding donors; result = 18%
Substance = CCOc1ccc(NC(=O)c2cnn(-c3ccc(C)c(Cl)c3)c2C2CCNCC2)cc1; target or system = SARS-CoV-2; assay = cytopathic effect; system = USA_WA1/2020; setting = retest, 8-point, duplicates; measurement = maximum response; result = 33.9%
Substance = O=C(Nc1ccc(N2CCOCC2)cc1)c1cc2occc2n1Cc1ccc(Cl)cc1; target or system = Zaire ebolavirus; assay = pseudovirus entry; system = A549; measurement = EC50; result = > 100 µM
Substance = CO[C@H]1/C=C/O[C@@]2(C)Oc3c(C)c(O)c4c(O)c(c(/C=N/N5CCN(C)CC5)c(O)c4c3C2=O)NC(=O)/C(C)=C\C=C\[C@H](C)[C@H](O)[C@@H](C)[C@@H](O)[C@@H](C)[C@H](OC(C)=O)[C@@H]1C; target or system = HEK-293T/ACE2; setting = 10 µM, 16 h; how to read = relative to: vehicle; measurement = viability; result = 100%
Substance = SASFSTFKCYGVSPT; target or system = human CD4 T cells; assay = AIM; system = peptide; measurement = responding donors; result = 8%
Substance = O=C(NC[C@@H]1Cc2ccccc2CN1C(=O)c1noc2c1CCCC2)c1cn[nH]c(=O)c1; target or system = rep main protease; assay = enzyme activity, inhibitor; setting = 5 µM, run 2; measurement = inhibition; result = 17.5%
Substance = COc1ccc(N2CCN(CCCNC(=O)c3cc(Nc4ccc(OC)cc4OC)nc4ccccc34)CC2)cc1; target or system = SARS-CoV-2; assay = cytopathic effect; system = USA_WA1/2020; setting = retest, 8-point, duplicates; measurement = maximum response; result = 51.7%
Substance = C1=C(c2ccc(CN3CCCCC3)cc2)N2CCN=C2c2ccccc21; target or system = SARS-CoV-2; assay = viral replication; system = Huh-7-ACE2, USA-WA1/2020; measurement = EC90; result = 1410 nM
Substance = CC(C)=CCc1cc2c(cc1O)O[C@H](c1ccc(O)cc1)CC2=O; target or system = Spike glycoprotein; assay = binding; measurement = Kd; result = 56 µM
Substance = RNCRAPRKK; target or system = HLA class I histocompatibility antigen, A alpha chain (Homo sapiens, UniProt P04439); assay = iTopia binding; system = peptide; setting = 11 µM, 18 h, 21 °C; how to read = relative to: positive control; measurement = peptide binding; result = 62.1%
Substance = Nc1ncnc2c([C@@H]3N[C@H](CO)[C@@H](O)[C@H]3O)c[nH]c12; target or system = Marburg virus; assay = viral replication; system = HeLa, Musoke; setting = 6.3 µM; measurement = inhibition; result = 74%
Substance = CC[C@H](C)[C@H](NC(=O)[C@H](CC(C)C)NC(=O)[C@H](Cc1c[nH]c2ccccc12)NC(=O)[C@H](CCC(N)=O)NC(=O)[C@@H](NC(=O)[C@H](Cc1ccccc1)NC(=O)[C@H](C)NC(=O)[C@H](CCCCNC(=O)COCCOCCNC(=O)COCCOCCNC(=O)CC[C@H](NC(=O)CCCCCCCCCCCCCCCCCCC(=O)O)C(=O)O)NC(=O)[C@H](CCC(N)=O)NC(=O)[C@H](C)NC(=O)[C@@H](NC(=O)[C@H](CCCCN)NC(=O)[C@H](CC(=O)O)NC(=O)[C@H](CC(C)C)NC(=O)C(C)(C)NC(=O)[C@@H](NC(=O)[C@H](CO)NC(=O)[C@H](Cc1ccc(O)cc1)NC(=O)[C@H](CC(=O)O)NC(=O)[C@H](CO)NC(=O)[C@@H](NC(=O)[C@H](Cc1ccccc1)NC(=O)[C@@H](NC(=O)CNC(=O)[C@H](CCC(=O)O)NC(=O)C(C)(C)NC(=O)[C@@H](N)Cc1ccc(O)cc1)[C@@H](C)O)[C@@H](C)O)[C@@H](C)CC)[C@@H](C)CC)C(C)C)C(=O)N[C@@H](C)C(=O)NCC(=O)NCC(=O)N1CCC[C@H]1C(=O)N[C@@H](CO)C(=O)N[C@@H](CO)C(=O)NCC(=O)N[C@@H](C)C(=O)N1CCC[C@H]1C(=O)N1CCC[C@H]1C(=O)N1CCC[C@H]1C(=O)N[C@@H](CO)C(N)=O; system = healthy subjects, single ascending dose; setting = 5.0 mg, day 29; how to read = relative to: baseline; measurement = pulse rate change; result = -1.72 bpm
Substance = CC[C@H](C)[C@H](NC(=O)[C@H](C)NC(=O)[C@H](CCC(=O)O)NC(=O)[C@H](CCC(=O)O)NC(=O)[C@H](CC(C)C)NC(=O)[C@H](CCCCN)NC(=O)[C@H](CCCCN)NC(=O)[C@H](CCSC)NC(=O)[C@H](CCC(=O)O)NC(=O)[C@H](Cc1ccc(O)cc1)NC(=O)[C@H](CCC(=O)O)NC(=O)[C@H](CC(C)C)NC(=O)[C@H](CC(=O)O)NC(=O)[C@H](CC(C)C)NC(=O)[C@H](Cc1ccccc1)NC(=O)[C@@H](NC(=O)[C@@H](NC(=O)[C@H](CC(N)=O)NC(=O)[C@@H](NC(=O)[C@H](CCC(N)=O)NC(=O)[C@H](CC(=O)O)NC(=O)[C@H](CC(C)C)NC(=O)[C@@H](N)CO)[C@@H](C)CC)C(C)C)[C@@H](C)O)C(=O)N[C@@H](CCCCN)C(=O)N[C@@H](CCCCN)C(=O)N[C@@H](CC(C)C)C(=O)N[C@@H](CCC(=O)O)C(=O)N[C@@H](CCC(=O)O)C(=O)N[C@@H](CO)C(=O)N[C@@H](Cc1ccc(O)cc1)C(=O)N[C@H](C(=O)N[C@@H](CC(=O)O)C(=O)N[C@@H](CC(C)C)C(=O)N[C@@H](CCCCN)C(=O)N[C@@H](CCC(=O)O)C(=O)N[C@@H](CC(C)C)C(=O)NCC(=O)N[C@@H](CO)C(=O)NCC(=O)N[C@@H](CO)C(=O)NCC(=O)NCCOCCOCCOCCOCCC(=O)N[C@@H](CSCC(=O)O[C@H]1CC[C@@]2(C)C(=CC[C@H]3[C@@H]4CC[C@H]([C@H](C)CCCC(C)C)[C@@]4(C)CC[C@@H]32)C1)C(N)=O)[C@@H](C)CC; target or system = SARS-CoV-2; assay = pseudovirus infection; system = mouse serum; setting = concentration not given; measurement = loss of inhibitory activity; result = ~40%
Substance = CC(C)=CCC/C(C)=C/CC/C(C)=C/CC/C(C)=C/CC1=C(C)C(=O)c2ccccc2C1=O; target or system = Spike glycoprotein; assay = binding, BLI; measurement = kon; result = 9.75 M⁻¹ s⁻¹
Substance = Cc1ccc(OCCn2c(C)c(C=C3C(=O)NC(=S)NC3=O)c3ccccc32)c(C)c1; target or system = rep main protease; assay = viral replication, Gluc reporter; system = SARS-CoV-2; setting = 20 µM; measurement = inhibition; result = -5.98%
